Measurements of several laboratories.
Numbered parts are unrelated; each lists some results of a single study. Substitutions count along the parent as printed.
Chain of UniProt O75417 (whole entry, unmodified, looked up): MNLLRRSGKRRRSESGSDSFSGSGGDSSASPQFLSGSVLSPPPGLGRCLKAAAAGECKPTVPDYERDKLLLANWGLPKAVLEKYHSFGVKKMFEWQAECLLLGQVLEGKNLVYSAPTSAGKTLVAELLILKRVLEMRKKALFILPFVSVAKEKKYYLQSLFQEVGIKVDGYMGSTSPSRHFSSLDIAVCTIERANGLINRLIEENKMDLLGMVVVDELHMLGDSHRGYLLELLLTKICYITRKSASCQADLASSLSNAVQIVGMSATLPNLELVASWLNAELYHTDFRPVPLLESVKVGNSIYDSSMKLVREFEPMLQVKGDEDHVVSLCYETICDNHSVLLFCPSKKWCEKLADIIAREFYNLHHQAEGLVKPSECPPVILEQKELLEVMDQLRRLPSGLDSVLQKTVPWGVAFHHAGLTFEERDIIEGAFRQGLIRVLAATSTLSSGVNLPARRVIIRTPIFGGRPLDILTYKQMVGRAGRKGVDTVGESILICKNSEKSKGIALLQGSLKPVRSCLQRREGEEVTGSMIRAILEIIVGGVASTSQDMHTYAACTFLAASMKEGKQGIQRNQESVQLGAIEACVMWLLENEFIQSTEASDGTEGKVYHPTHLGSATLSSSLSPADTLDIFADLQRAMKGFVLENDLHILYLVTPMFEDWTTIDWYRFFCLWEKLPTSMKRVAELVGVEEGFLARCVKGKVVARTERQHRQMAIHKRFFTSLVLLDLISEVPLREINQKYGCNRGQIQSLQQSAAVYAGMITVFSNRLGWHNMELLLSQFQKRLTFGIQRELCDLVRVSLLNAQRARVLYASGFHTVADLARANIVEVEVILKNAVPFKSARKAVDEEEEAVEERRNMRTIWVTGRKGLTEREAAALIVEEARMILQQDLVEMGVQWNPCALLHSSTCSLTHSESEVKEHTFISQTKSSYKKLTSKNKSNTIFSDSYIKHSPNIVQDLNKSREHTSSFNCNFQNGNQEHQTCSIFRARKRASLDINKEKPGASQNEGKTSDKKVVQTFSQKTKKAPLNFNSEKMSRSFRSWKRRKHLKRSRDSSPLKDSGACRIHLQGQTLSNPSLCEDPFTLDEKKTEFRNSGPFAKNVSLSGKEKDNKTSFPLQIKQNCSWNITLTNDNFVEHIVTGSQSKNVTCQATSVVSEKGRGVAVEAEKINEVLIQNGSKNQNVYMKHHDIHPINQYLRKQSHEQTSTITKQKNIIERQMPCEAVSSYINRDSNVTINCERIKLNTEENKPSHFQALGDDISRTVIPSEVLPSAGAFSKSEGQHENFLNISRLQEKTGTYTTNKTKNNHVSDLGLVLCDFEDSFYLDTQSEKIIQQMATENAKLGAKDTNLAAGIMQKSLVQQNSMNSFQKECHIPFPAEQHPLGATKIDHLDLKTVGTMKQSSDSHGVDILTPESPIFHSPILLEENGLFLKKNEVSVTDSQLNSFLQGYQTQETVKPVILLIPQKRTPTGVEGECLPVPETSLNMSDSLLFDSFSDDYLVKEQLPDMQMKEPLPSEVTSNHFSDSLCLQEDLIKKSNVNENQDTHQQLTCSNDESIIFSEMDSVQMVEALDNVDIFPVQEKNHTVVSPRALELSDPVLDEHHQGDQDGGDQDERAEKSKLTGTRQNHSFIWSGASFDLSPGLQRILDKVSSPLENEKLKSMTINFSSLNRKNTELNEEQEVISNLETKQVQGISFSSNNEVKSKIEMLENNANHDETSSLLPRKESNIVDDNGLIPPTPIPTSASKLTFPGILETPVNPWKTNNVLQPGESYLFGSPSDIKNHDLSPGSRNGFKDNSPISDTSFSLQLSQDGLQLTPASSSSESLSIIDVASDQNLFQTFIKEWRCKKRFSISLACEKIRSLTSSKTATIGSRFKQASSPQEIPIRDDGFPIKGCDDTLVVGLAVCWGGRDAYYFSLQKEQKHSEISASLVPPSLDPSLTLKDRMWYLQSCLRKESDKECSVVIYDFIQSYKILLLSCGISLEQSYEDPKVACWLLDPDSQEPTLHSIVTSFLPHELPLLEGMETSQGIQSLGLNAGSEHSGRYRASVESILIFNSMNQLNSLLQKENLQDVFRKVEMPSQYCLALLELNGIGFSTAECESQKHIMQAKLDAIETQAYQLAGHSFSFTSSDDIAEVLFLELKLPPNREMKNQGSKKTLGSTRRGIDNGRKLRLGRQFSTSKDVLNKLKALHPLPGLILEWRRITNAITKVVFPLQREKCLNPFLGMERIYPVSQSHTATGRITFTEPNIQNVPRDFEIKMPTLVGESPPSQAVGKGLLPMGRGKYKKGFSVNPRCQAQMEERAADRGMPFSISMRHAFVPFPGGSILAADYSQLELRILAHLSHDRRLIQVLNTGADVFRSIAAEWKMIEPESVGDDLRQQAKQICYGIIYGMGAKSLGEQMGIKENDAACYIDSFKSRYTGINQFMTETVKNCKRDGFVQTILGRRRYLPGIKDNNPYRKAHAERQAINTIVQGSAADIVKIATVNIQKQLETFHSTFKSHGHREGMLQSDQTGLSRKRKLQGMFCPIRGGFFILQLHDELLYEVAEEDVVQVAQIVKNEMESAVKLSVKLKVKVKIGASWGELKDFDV

Study 1 — target: vanadate, free oxyanion; method: microfluidic competitive inhibition; medium: in vitro, cell-free expressed; concentration: not given; direction: lower = stronger binding
Notes: derived from inhibition constants, unchanged parent 676 nM
Starting sequence: PafA, mature enzyme, eGFP fusion (Elizabethkingia meningoseptica, UniProt Q9KJX5); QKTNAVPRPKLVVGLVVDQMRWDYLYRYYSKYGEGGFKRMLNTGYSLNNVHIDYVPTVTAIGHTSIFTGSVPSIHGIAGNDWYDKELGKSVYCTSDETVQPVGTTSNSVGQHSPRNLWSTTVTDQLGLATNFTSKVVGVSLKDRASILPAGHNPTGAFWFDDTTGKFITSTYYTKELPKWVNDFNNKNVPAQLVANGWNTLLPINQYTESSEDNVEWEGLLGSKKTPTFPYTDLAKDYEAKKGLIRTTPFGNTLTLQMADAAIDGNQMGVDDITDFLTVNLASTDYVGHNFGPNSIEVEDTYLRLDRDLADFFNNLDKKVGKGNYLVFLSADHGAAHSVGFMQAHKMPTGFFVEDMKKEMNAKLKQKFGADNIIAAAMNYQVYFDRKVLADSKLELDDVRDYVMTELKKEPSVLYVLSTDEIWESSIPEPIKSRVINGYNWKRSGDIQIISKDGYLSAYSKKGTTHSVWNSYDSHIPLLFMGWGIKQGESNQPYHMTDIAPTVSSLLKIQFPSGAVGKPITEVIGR
Substitution | oxyanion analog dissociation constant [nM]
D397V | 720
D96V | 3940
Q366G | 744
K236V | 788
A362V | 690
G321V | 644
A150G | 824
N131V | 755

Study 2 — target: CCND2, cyclin fold, Cln2 fusion (human); method: yeast growth competition, sequencing; medium: yeast; notes: strong parent motif; baseline: not given; direction: higher = stronger binding
Starting sequence: viral docking peptide; YKVKRRLVFGADD; partner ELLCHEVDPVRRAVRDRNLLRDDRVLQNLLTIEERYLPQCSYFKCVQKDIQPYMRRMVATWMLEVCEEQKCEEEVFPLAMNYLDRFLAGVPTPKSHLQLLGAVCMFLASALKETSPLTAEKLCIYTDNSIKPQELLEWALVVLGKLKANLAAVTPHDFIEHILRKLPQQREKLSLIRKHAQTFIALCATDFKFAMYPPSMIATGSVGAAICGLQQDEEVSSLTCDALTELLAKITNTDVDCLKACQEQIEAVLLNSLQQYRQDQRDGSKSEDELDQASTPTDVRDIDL
Substitution | normalised enrichment score
F9A | -0.223
V3P | 0.663
F9V | -0.021
D12N | 1.13
R6G | -0.0317
D12M | 1.08
G10H | 0.871
V8Q | 1

Further values, each from its own experiment
Structure (SMILES) | target | assay | conditions | endpoint | value
CNCc1ccccc1-c1csc([C@@H](C)Nc2nc(C)nc3cc(OC)c(OC)cc23)c1 | CDPK1 (Plasmodium falciparum, UniProt P62344) | cell-free assay, competition with immobilised ligand | 1 µM | remaining binding | 100%
COc1ccc2c(c1O)-c1cccc3c1[C@@H](C2)N(C)CC3 | DNA polymerase theta, ATPase domain (POLQ, Homo sapiens, UniProt O75417) | enzyme activity, inhibitor | 77 µM | remaining activity | 103%

Repeated from above (study 2):
Substitution | normalised enrichment score
R6G | -0.0317
D12M | 1.08
G10H | 0.871
